# Results gathered from unrelated publications.
# Compare with care: the assays were run in different laboratories. ± marks the error that the study gave.
SMILES,cell line,test,system,setting,scale,measurement,result
COc1cc(CNC(=O)C[C@H](C)CCC=C(C)C)ccc1OCc1cn(-c2ccc(Br)cc2)nn1,OVCAR-5 ovarian cancer cells,SRB,,"10 µM, 48 h",,growth percent,105%
CCCC[C@H](NC(=O)[C@H](Cc1ccccc1)NC(=O)[C@H](Cc1c[nH]cn1)NC(=O)CCNC(=O)[C@@H](NC(=O)[C@H](C)NC(=O)[C@H](Cc1c[nH]c2ccccc12)NC(=O)[C@H](CCC(N)=O)NC(=O)[C@H](N)Cc1ccc(O)cc1)C(C)C)C(N)=O,NCI-H1299,"Western blot, refers to: EGFR tyrosine phosphorylation",,"0.1 µM, 2 min",relative to: untreated,phosphorylation fold increase,1.9 fold
CC(=O)C=C(C)[O][Pd][c]1ccccc1C(=O)N=P12CN3CN(CN(C3)C1)C2,human PBMC and Jurkat,"cytotoxicity, MTT",,,relative to: PBMC over Jurkat,selectivity ratio,11
CO[C@@H]1[C@H](O)[C@@H](COP(=O)(O)OP(=O)([S-])OP(=O)(S)OC[C@H]2O[C@@H](n3cnc4c(=O)[nH]c(N)nc43)[C@H](O)[C@@H]2O)O[C@H]1n1c[n+](C)c2c(O)nc(N)nc21 (mixture of isomers),human immature dendritic cells,reporter gene,,"72 h, cap on electroporated luciferase mRNA",relative to: beta-S-ARCA D1 capped mRNA,relative total luciferase expression,1.6 ± 0.01
COc1cc(CNC(=O)C[C@H](C)CCC=C(C)C)ccc1OCc1cn(-c2ccc(Cl)c(Cl)c2)nn1,OVCAR-5 ovarian cancer cells,SRB,,"10 µM, 48 h",,growth percent,86.4%
O=Cc1c(O)ccc2ccccc12,HUVEC,"RNA sequencing, refers to: PAPPA2",,"75 µM, 24 h",relative to: DMSO,log2 fold change,2.59
O=C(Nc1ccc(C(F)(F)F)cc1Cl)c1cc(Cl)ccc1O,"293 cells expressing AR-V7, HSP70 and Flag-STUB1",dual immunofluorescence,,1 µM,,AR-V7 and STUB1 co-localization,increased
Cc1nc(C)c(C=[N+]([O-])C(C)(C)C)nc1C,primary rat midbrain neurons,"Western blot, refers to: MEF2D",,"30 µM, with: 20 µM MPP+",,increase in protein level,18.9%
Cc1c(C)n(-c2c(C(C)C)cccc2C(C)C)c(=[Se])n1-c1c(C(C)C)cccc1C(C)C.[Cl][Au],LoVo-OXP colon cancer cells,MTT,,,relative to: LoVo-OXP over LoVo IC50,resistance factor,0.9
Cn1c2cc([S+](C)[O-])sc2c2cnn(Cc3cccc(N)c3)c(=O)c21 (stereo not shown),H1299,LC-MS/MS,,"25 µM, 36 h",,intracellular ribose phosphate,decreased
Cc1ccc(C(C)C)cc1.O=C(N=P(c1ccccc1)(c1ccccc1)c1ccccc1)c1ccccn1.[Cl-].[Cl][Ru+],HCC1806,"cell migration, wound-healing scratch",,"IC20, 24 h",,inhibition,68.9%
COC(=O)[C@@H](Cc1cn(Cc2ccc(Cl)cc2)nn1)NC(=O)OCC1c2ccccc2-c2ccccc21,AsPC-1,MTS,,"100 µM, 72 h",,cell growth inhibition,no effect
Cc1ncsc1-c1ccc([C@H](C)NC(=O)[C@@H]2C[C@@H](O)CN2C(=O)[C@@H](NC(=O)[C@H]2C[C@H](C(=O)N3CCC(c4cc(Nc5cc(C#N)ccn5)nc(N5CCC(F)(F)C5)c4)CC3)C2)C(C)(C)C)cc1,CAL-33 (dox-induced wild-type LZK),"western blot, refers to: phospho-JNK",,"concentration not given, despite LZK loss",,time to signal rebound,24 h
COc1cc(CNC(=O)C[C@H](C)CCC=C(C)C)ccc1OCc1cn(-c2ccccc2[N+](=O)[O-])nn1,OVCAR-5 ovarian cancer cells,SRB,,"10 µM, 48 h",,growth percent,95.6%
COc1cccc(/C=N/Nc2nc(Nc3ccccc3)nc(-n3nc(C)cc3C)n2)c1O,LDR,"silenced GFP reporter derepression, microscopy",,overnight,relative to: sodium butyrate,Emax,104%
COc1cc(CNC(=O)C[C@H](C)CCC=C(C)C)ccc1OCc1cn(-c2cccc(Cl)c2)nn1,SNB-19 CNS cancer cells,SRB,,"10 µM, 48 h",,growth percent,67.9%
COc1ccc(CC2COC(=O)C2Cc2ccc3c(c2)OCO3)cc1OC (mixture of isomers),A2780,"western blot, refers to: Bax",,"IC50, 48 h",relative to: 0 h,protein level,increased
COc1ccc([C@@H]2CC(=O)c3c(O)cc(O[C@@H]4O[C@H](CO[C@@H]5O[C@@H](C)[C@H](O)[C@@H](O)[C@H]5O)[C@@H](O[C@H]5O[C@H](CO)[C@@H](O)[C@H](O)[C@H]5O)[C@H](O)[C@H]4O)cc3O2)cc1O,A549,"cell migration, scratch",,"50 µg/mL, 0 h",,gap closure,0%
CC(=O)Oc1ccccc1C(=O)[O][Pt]([NH2])([NH2])([Cl])([Cl])[O]C(=O)CCCc1ccccc1,HEK293 and PSN1,"cytotoxicity, MTT",,,relative to: IC50 HEK293 over IC50 PSN1,selectivity index,1.2
COc1cc(CNC(=O)C[C@H](C)CCC=C(C)C)ccc1OCc1cn(-c2ccccc2)nn1,BT-549 breast cancer cells,SRB,,"10 µM, 48 h",,growth percent,83.3%
CC(=O)OC[C@H]1O[C@@H](Sc2sc(C(=O)c3ccc(C)cc3)c(N)c2-c2nc3ccccc3s2)[C@H](OC(C)=O)[C@@H](OC(C)=O)[C@H]1OC(C)=O,SNB-19,SRB,,"10 µM, 48 h",relative to: untreated,growth,88.2%
COc1cc(CNC(=O)C[C@H](C)CCC=C(C)C)ccc1OCc1cn(-c2ccccc2Cl)nn1,BT-549 breast cancer cells,SRB,,"10 µM, 48 h",,growth percent,28.2%
COc1ccc2c(C)nc(Nc3nc(O)cc(-c4ccccc4)n3)nc2c1,LDR,"silenced GFP reporter derepression, microscopy",,overnight,relative to: sodium butyrate,Emax,100%
CC1=CCC23OC2(C)CCC2C(CN(C)C)C(=O)OC2C13.Cl (stereo not shown),C6 rat glioma cells,,,"0.2 mg/mL, clonogenic",relative to: control,proliferation reduction,5 fold
CCc1cccc(CC)c1NC(=O)c1nn(C)c2c1CCc1cnc(Nc3ccc(N4CCN(C)CC4)cc3OC)nc1-2,HeLa H2B-YFP parental,live cell imaging,,100 nM,,cells with severe segregation errors,100%
CC/C=C\C/C=C\C/C=C\C/C=C\C/C=C\C/C=C\CCC(=O)Nc1ccn(C2OC(CO)C(O)C2(F)F)c(=O)n1 (stereo not shown),Panc02,,,"10 µM, 4 h",relative to: gemcitabine,cellular uptake,~10 fold
CC(=O)N[C@H](C(=O)N[C@H](C(=O)N[C@@H](CCCNC(=N)N)C(=O)N1Cc2ccccc2C[C@H]1C(=O)N[C@@H](Cc1ccccc1)C(N)=O)C1CCCCC1)C(C)C,MBP-specific BC-3 T cells,"Bio-Plex multiplex, refers to: VEGF",,"200 µg/mL, 24 h, with: MBP87-99 antigen",,cytokine level,90.7 ± 33.9 pg/mL
COc1cccc2c1C(=O)c1c(O)c3c(c(O)c1C2=O)CC(O)(C(=O)CO)CC3OC1CC(NC(=O)CCC2=C(C)C(=O)C=C(C(C)C)C2=O)C(O)C(C)O1 (stereo not shown),Huntington disease fibroblasts,,,"10 µM, 4 h",relative to: free doxorubicin,ROS production,decreased
CCCCCCCCCCCCCCCC(=O)OCC(CSC[C@H](N)C(=O)N[C@@H](CO)C(=O)N[C@@H](CCCCN)C(=O)N[C@@H](CCCCN)C(=O)N[C@@H](CCCCN)C(=O)N[C@@H](CCCCN)C(=O)NCCCCCC(=O)N[C@@H](CCCCN)C(=O)N[C@@H](CC(C)C)C(=O)N[C@H](C(=O)N[C@@H](Cc1ccccc1)C(=O)N[C@@H](Cc1ccccc1)C(=O)N[C@@H](Cc1ccc2ccccc2c1)C(=O)O)C(C)C)OC(=O)CCCCCCCCCCCCCCC (stereo partly shown),BV-2,"western blot, refers to: MARCO",,"1.0 µM, 12 h",,protein level,increased
CSCC[C@H](NC(=O)[C@@H](NC(=O)[C@H](CC(C)C)NC(=O)[C@H](CC(N)=O)NC(=O)[C@@H](NC(=O)[C@@H]1CCCN1C(=O)[C@H](CCCNC(=N)N)NC(=O)[C@@H](N)CCC(N)=O)C(C)C)[C@@H](C)O)C(=O)N[C@@H](CCCNC(=N)N)C(=O)N[C@@H](CCCNC(=N)N)C(=O)N[C@@H](CCCCN)C(=O)N[C@@H](CC(C)C)C(=O)N[C@@H](CCCNC(=N)N)C(=O)N[C@@H](CCCCN)C(=O)N[C@@H](Cc1c[nH]cn1)C(=O)N[C@@H](CC(N)=O)C(=O)N[C@H]1CSSC[C@@H](C(=O)N[C@@H](CCSC)C(=O)N2CCC[C@H]2C(=O)N[C@@H](CC(C)C)C(=O)N[C@@H](Cc2c[nH]cn2)C(=O)N[C@@H](CO)C(=O)N[C@@H](CCCNC(=N)N)C(=O)N[C@H](C(=O)N2CCC[C@H]2C(=O)N[C@@H](Cc2ccccc2)C(=O)N2CCC[C@H]2C(=O)O)C(C)C)NC(=O)[C@H](CCCNC(=N)N)NC(=O)[C@H](CCCNC(=N)N)NC(=O)[C@H](CCC(N)=O)NC(=O)[C@H](CC(C)C)NC1=O,HEK293 expressing APJ S335A,"β-arrestin1-AP2 interaction, BRET",,,relative to: wild-type APJ cells,BRET signal,decreased
COc1cc(CNC(=O)C[C@H](C)CCC=C(C)C)ccc1OCc1cn(-c2cccc([N+](=O)[O-])c2)nn1,BT-549 breast cancer cells,SRB,,"10 µM, 48 h",,growth percent,77.1%
CO[C@H]1N(OC)c2ccccc2[C@@]12CN=C(Nc1cc(C(F)(F)F)cc(C(F)(F)F)c1)S2 (relative stereo),HCT-116,PI flow cytometry,,"40 µM, 48 h",,S phase cells,9.31 ± 2.54%
Cn1cc(-c2cc(N3CCCCS3(=O)=O)ccc2N[C@H]2CC[C@H](C)CC2)c2cc[nH]c2c1=O (stereo in doubt),light2 cells transfected with GLI1-FLAG,"Western blot, refers to: exogenous GLI1-FLAG",,concentration not given,,protein level,no effect
CCCCCCCCN(CCC(=O)Nc1ccccc1)C(=O)c1ccccn1,progeroid mouse fibroblasts,"immunoblot, refers to: phospho-histone H2AX",,"2 µM, 14 d",,phospho-H2AX level,decreased
Cc1ccc(C(C)C)cc1.[Cl-].[Cl-].[Ru+2].c1ccc(P(=Nc2cccc3cccnc23)(c2ccccc2)c2ccccc2)cc1,Jurkat,,,"concentration not given, 24 h",,annexin V positive cells,28%
Cc1noc(NS(=O)(=O)c2ccc(NC(=O)c3cc(-c4ccc5ccccc5c4)nc4ccccc34)cc2)c1C,mouse spleen cells,"cell proliferation, MTT",,"10 µM, 72 h, with: concanavalin A 5 µg/mL",,inhibition,34.3 ± 5.6%
O=C(O)CCC(NP(=O)(O)OCCC[C@@H](NC(=O)CC[C@H](NC(=O)CCCCCNC(=O)c1ccc([18F])cc1)C(=O)O)C(=O)O)C(=O)O (stereo partly shown),LNCaP,,,"concentration not given, 1 h",,cell uptake,5.51 ± 0.77%
O=C1OCC2=C1C(c1cccc(Br)c1)C1=C(N2)C(=O)c2ccccc2C1=O (stereo not shown),SK-LU-1 cells,PI flow cytometry,,"0.08 µM, 24 h",,cells in S phase,30.8%
COc1cccc2c(NCc3ccccc3)nc(Nc3cccc(Cl)c3)nc12,SW-403,cell growth or viability,,24 h,,GI50,12 µM
CC(=O)O[C@H]1C2=C(C(=O)C(O)=C(C(C)C)C2=O)[C@@]2(C)CCCC(C)(C)[C@@H]2[C@@H]1O,MRC-5 and NCI-H460,"cell growth, MTT",,,relative to: GI50 MRC-5 over NCI-H460,selectivity index,3.2
CC(C)c1cccc(C(C)C)c1-n1c(Cl)c(Cl)n(-c2c(C(C)C)cccc2C(C)C)c1=[Se].[Cl][Ag],LoVo-OXP colon cancer cells,MTT,,,relative to: LoVo-OXP over LoVo IC50,resistance factor,0.4
C[C@@H](O)[C@H](NC(=O)[C@@H]1CSSC[C@H](NC(=O)[C@@H](Cc2ccccc2)NC(=O)CN2CCN(CC(N)=O)CCN(CC(N)=O)CCN(CC(N)=O)CC2)C(=O)N[C@@H](Cc2ccc(O)cc2)C(=O)N[C@H](Cc2c[nH]c3ccccc23)C(=O)N[C@@H](CCCCN)C(=O)N[C@@H]([C@@H](C)O)C(=O)N1)C(=O)O [lead-212 labelled],AR-42J,fluorescein diacetate,,"concentration not given, 4 h exposure, 4 days",,concentration for complete cell death,800 nCi/mL
CCOP(=O)(CC(=O)Nc1ccc(S(=O)(=O)N(CC(N)=O)c2ccc(N(CC(N)=O)S(=O)(=O)c3ccc(OC)cc3)c3ccccc23)cc1)OCC,mouse primary cortical neurons,"western blot, refers to: phospho-tau",,"20 µM, with: amyloid beta",,protein level,decreased
C#CCN(CC(=O)O[C@H]1[C@H](C)O[C@@H](O[C@H]2[C@H](N(C)C)[C@@H](O)[C@H](O[C@H]3[C@@H](CC=O)C[C@@H](C)[C@@H](O[C@H]4CC[C@H](N(C)C)[C@@H](C)O4)/C=C/C=C/C[C@@H](C)OC(=O)C[C@@H](O)[C@@H]3OC)O[C@@H]2C)C[C@@]1(C)O)C(=O)c1ccc(C(F)(F)F)cc1,HGC-27,PI flow cytometry,,"0.90 µM, 48 h",,S phase cells,37.8%
C=CC1CN(C(=O)NCC=CCSCC=CCNC(=O)N2CC(C=C)OC2=S)C(=S)O1 (stereo not shown),WB-F344 rat liver,hepatocyte damage,,"10 µM, with: D-galactosamine",,inhibition,70%
Brc1cccc(CNc2nc(NCc3ccccc3)c3ccccc3n2)c1,SW-403,cell growth or viability,,24 h,,GI50,4.3 µM
CCCCN1C(=O)c2cccc3c(NCCCCCCCCCCN4CCOCC4)ccc(c23)C1=O,BHK-21,confocal lambda scanning,endoplasmic reticulum,,,emission maximum,~536 nm
COc1cc(CNC(=O)C[C@H](C)CCC=C(C)C)ccc1OCc1cn(-c2ccc(Cl)cc2Cl)nn1,SNB-19 CNS cancer cells,SRB,,"10 µM, 48 h",,growth percent,50%
COc1cc(COC(=O)C2C(C=O)=Cc3cc4c(cc3C2c2cc(OC)c(OC)c(OC)c2)OCO4)cc(OC)c1OC (stereo not shown),uninfected mouse splenocytes,,,,relative to: splenocyte CC50 over amastigote EC50,selectivity index,5
COc1cc(N2CCN(C(=O)C3CCCN3)CC2)ccc1Nc1ncc(Cl)c(Nc2ccccc2P(C)(C)=O)n1 (stereo not shown),Ba/F3 EML4-ALK,"cell proliferation, CCK-8 time course",,1 µM,,time to growth inhibition,3 h
CCCC(=O)N1CCN(c2ccc(NC(=O)c3ccc([N+](=O)[O-])o3)cc2Cl)CC1,LDR,"silenced GFP reporter derepression, microscopy",,overnight,relative to: sodium butyrate,Emax,22%
CC(C)(C)C(=O)Nc1ccc2[nH]c(CN3CCC(N(CCCN4CCOCC4)CC4OC(n5cnc6c(N)ncnc65)C(O)C4O)CC3)nc2c1 (stereo not shown),"H460, H1299, H1975, H446 R231Q cells",,,"concentration not given, 7 to 10 days",,colony formation,inhibited
